Assay results from different studies.
“And” joins repeats or separate records; there may be more than shown. Numbers after ± are the reported error.

| Compound | assay | test system | conditions | scale | quantity | value |
| --- | --- | --- | --- | --- | --- | --- |
| Cc1c(COC(=O)[C@@H]2[C@H](/C=C(\Cl)C(F)(F)F)C2(C)C)cccc1-c1ccccc1 (racemic) | refers to: CYP2C8 | human, age 6 months, recombinant human CYP2C8 | 0.1 µM |  | enzyme contribution to clearance | 9.07% |
| C=CCNc1c(O)cc2c(O)c1C[C@@H](C)C[C@H](OC)[C@H](O)[C@@H](C)/C=C(\C)[C@H](OC(N)=O)[C@@H](OC)/C=C\C=C(/C)C(=O)N2 |  | unresectable or metastatic STS, GIST, other | intravenous, 400 mg/m^2 |  | patients with back pain TEAE | 22% |
| N=C(N)NCCC[C@@H](NC(=O)[C@@H](N)Cc1ccccc1)C(=O)N[C@@H](Cc1ccccc1)C(=O)N[C@@H](CCCCN)C(N)=O | LC-MS | human, urine | subcutaneous, 15 mg, 5.833 h, median |  | fraction of dose excreted unchanged | 35% |
| Cn1cncc1-c1c(F)cncc1NC(=O)c1c(N)nn2cc(F)cnc12 |  | human patients | oral, 150 mg twice daily, 4 days per 3 days, 21 days |  | upper gastrointestinal haemorrhage DLT | 0% |
| CN[C@@H](C)C(=O)N[C@H]1CN(S(=O)(=O)c2cccc(S(=O)(=O)N3CC[C@H]4CC[C@@H](C(=O)NC(c5ccccc5)c5ccccc5)N4C(=O)[C@@H](NC(=O)[C@H](C)NC)C3)c2)CC[C@H]2CC[C@@H](C(=O)NC(c3ccccc3)c3ccccc3)N2C1=O |  | patients with advanced solid tumours | 0.6 mg, phase I monotherapy |  | treatment-related facial nerve disorder incidence | 0% |
| Cc1cc(C)c(CNC(=O)c2cc(Cl)c3c(c2C)O[C@@](C)([C@H]2CC[C@H](N(C)C)CC2)O3)c(=O)[nH]1 |  | human, relapsed/refractory NHL | concentration not given, treatment-related TEAEs, grade 5 |  | Nasopharyngitis incidence | 0% |
| C[C@]1(CO)Cc2ncn(-c3ccc(C#N)c(Cl)c3)c2C(=O)O1 |  | human | 20 mg multiple doses, fasted |  | subjects with drug-related headache | 0% |
| N=C(CC(O)c1cc2c(F)cc(F)cc2c2cc(C(F)(F)F)ccc12)Nc1ccc(F)c(F)c1 (stereo not drawn) |  | human | 30 min |  | blood-to-plasma ratio | 1.04 ± 0.09 |
| COc1ncnn2ccc(-c3cnc4nc(C)n(Cc5nnc([C@@H](C)F)o5)c4c3)c12 |  | human | oral, dose not given, grade 2 |  | patients with dysgeusia | 7.1% |
| CC(=O)c1c(C)c2cnc(Nc3ccc(C4CCN(CCS(C)(=O)=O)CC4)cn3)nc2n(C2CCCC2)c1=O |  | HR+/HER2- advanced breast cancer patients | oral, 300 mg |  | patients with any TEAE | 100% |
| O=C(O)CCCOc1ccc(F)cc1-c1cc(-c2ccccc2C(F)(F)F)n(-c2ccccc2)n1 | refers to: TG | Crl:CD(SD) rats, female, blood | iv, 25 µg/kg, 1 day |  | blood chemistry | 16.1 ± 2.8 mg/dL |
| NCCCC[C@@H]1NC(=O)[C@@H](Cc2c[nH]c3ccccc23)NC(=O)[C@H](c2ccccc2)NC(=O)[C@@H]2C[C@@H](OC(=O)NCCN)CN2C(=O)[C@H](Cc2ccccc2)NC(=O)[C@H](Cc2ccc(OCc3ccccc3)cc2)NC1=O |  | healthy volunteers | subcutaneous, 1950 µg twice daily, day 5, 0.25 h |  | QTcI change from baseline | -4 ms |
| COc1cc2c(cc1OC)CN(CCc1ccc(NC(=O)c3cccc4c(=O)c5cccc(OC)c5[nH]c34)cc1)CC2 |  | CD-1 mouse, male, plasma | intraperitoneal, 1 mg/kg |  | AUC(0-inf) | 1340 ng·h/mL |
| CN1CCN(S(=O)(=O)c2cc([N+](=O)[O-])ccc2N(CCOS(C)(=O)=O)CCOS(C)(=O)=O)CC1 |  | naive female NSG mice, plasma | intraperitoneal, 5 mg/kg |  | AUC(0-t) | 0.49 µM·h |
| COc1ncccc1-c1cnn2ccc(N3CCN(C(=O)OC(C)C)CC3)nc12 |  | mouse nerve ligation model, brain | oral, 30 mg/kg, 120 min after last dose, repeat dosing day 5 |  | drug concentration | 19 µM |
| CCCCCOc1ccc(-c2ccc(-c3ccc(C(=O)N[C@H]4C[C@@H](O)[C@@H](OCC[N+](C)(C)C)NC(=O)[C@@H]5[C@@H](O)[C@@H](C)CN5C(=O)[C@H]([C@@H](C)O)NC(=O)[C@H]([C@H](O)[C@@H](O)c5ccc(O)cc5)NC(=O)[C@@H]5C[C@@H](O)CN5C(=O)[C@H]([C@@H](C)O)NC4=O)cc3)cc2)cc1 |  | adult ICU patients, mITT, serum | dose not given, Baseline |  | alanine aminotransferase | 25.5 U/L |
| CC(C)C[C@H](NC(=O)[C@H](CCCCN)NC(=O)OCC1c2ccccc2-c2ccccc21)C(=O)N[C@H](C(=O)N[C@@H](Cc1ccccc1)C(=O)N[C@@H](Cc1ccccc1)C(=O)N[C@@H](CCCCN)C(=O)NCC(=O)N[C@@H](Cc1ccccc1)C(=O)N[C@@H](C)C(=O)N[C@@H](Cc1c[nH]c2ccccc12)C(=O)N[C@@H](CC(N)=O)C(=O)N[C@H](C(=O)N[C@H]1CSSC[C@@H](C(=O)N[C@@H](Cc2c[nH]cn2)C(=O)N[C@@H](CCCNC(=N)N)C(=O)N[C@@H](CCCNC(=N)N)C(=O)N[C@@H](C)C(=O)N[C@@H](CC(N)=O)C(N)=O)NC(=O)[C@H](C(C)C)NC(=O)[C@H](CCCNC(=N)N)NC(=O)[C@H](C(C)C)NC(=O)CNC(=O)[C@H](CC(N)=O)NC(=O)[C@H](CCCNC(=N)N)NC(=O)[C@H](Cc2ccc(O)cc2)NC(=O)[C@H](C(C)C)NC1=O)C(C)C)C(C)C |  | ICR mouse, blood | intramammary, 5 mg/kg, day 5, 3 d dosing |  | MCV | 40.9 ± 0.64 fL |
| C[C@@H](NC(=O)N1C(=O)[C@H](Cc2ccnc(N)c2)[C@H]1C(=O)O)C1CCCCC1 |  | healthy adult Chinese volunteers | continuous intravenous infusion, 0.6 mg/kg/h, 5-day infusion, CTCAE 5.0 grading |  | incidence of elevated neutrophil | 0% |

| Compound | assay | test system | conditions | scale | quantity | value |
| --- | --- | --- | --- | --- | --- | --- |
| Cc1cccc(Cn2nc(C3CC3)c3c(NC(=O)c4cnc5cc(OCCN6CCN(C)CC6)ccn45)cccc32)n1 | CTCAE v4.03, refers to: blood alkaline phosphatase increased | platinum-resistant ovarian cancer patients | oral, dose not given, with: pembrolizumab IV every 3 weeks |  | all-cause adverse events | 0% |
| CC[C@H](C)[C@H](NC(=O)[C@H](CCCCN)NC(=O)[C@H](CCC(=O)O)NC(=O)[C@H](CCCCN)NC(=O)[C@H](CO)NC(=O)[C@H](CCCCN)NC(=O)[C@H](CCCNC(=N)N)NC(=O)[C@H](Cc1ccccc1)NC(=O)[C@H](Cc1ccccc1)NC(=O)[C@H](CC(=O)O)NC(=O)CNC(=O)[C@H](CC(C)C)NC(=O)[C@@H](N)CC(C)C)C(=O)NCC(=O)N[C@@H](CCCCN)C(=O)N[C@@H](CCC(=O)O)C(=O)N[C@@H](Cc1ccccc1)C(=O)N[C@@H](CCCCN)C(=O)N[C@@H](CCCNC(=N)N)C(=O)N[C@H](C(=O)N[C@H](C(=O)N[C@@H](CCC(N)=O)C(=O)N[C@@H](CCCNC(=N)N)C(=O)N[C@H](C(=O)N[C@@H](CCCCN)C(=O)N[C@@H](CC(=O)O)C(=O)N[C@@H](Cc1ccccc1)C(=O)N[C@@H](CC(C)C)C(=O)N[C@@H](CCCNC(=N)N)C(=O)N[C@@H](CC(N)=O)C(=O)N[C@@H](CC(C)C)C(=O)N[C@H](C(=O)N1CCC[C@H]1C(=O)N[C@@H](CCCNC(=N)N)C(=O)N[C@H](C(=O)N[C@@H](CCC(=O)O)C(=O)N[C@@H](CO)C(=O)O)[C@@H](C)O)C(C)C)[C@@H](C)CC)C(C)C)[C@@H](C)CC | LC-MS | buffer with trypsin | 40 µM, 540 min, pH 7.5, 37 °C | reference: 0 h | remaining intact peptide | 0.632% and 0.903% and 1.21% |
| N#Cc1ccc(COc2cccc(C(=O)Nc3ccc4c(c3)B(O)OC4)c2)cc1 | PAMPA | pre-coated trilayer membrane | 200 µM, 5 h, pH 7.4, donor plate, PBS |  | donor concentration | 170 ± 16.4 µM |
| C[C@@H]1OC(=O)NN=C1c1ccc(-c2ccc(F)cc2)c(C(F)(F)F)c1 | phase I trial, refers to: back pain all grades | human patients | 10 mg loading then 0.5 mg daily |  | patients with adverse event | 100% |
| COc1ccc(-c2c(-c3ccc(C#N)c(F)c3)nc(N3CCC(N)CC3)n(C)c2=O)cc1F | refers to: ≥1 any-grade serious TEAE | human patients | oral, dose not given, dose escalation |  | serious TEAE incidence | 46% |
| COc1ccc(C[C@@H]2NC(=O)[C@H]([C@@H](C)O)NC(=O)[C@@H]3[C@@H]4CCN3C(=O)[C@@H]3Cc5cn(c6ccc(F)cc56)CCCCCCN(Cc5ccc(cc5)CCNC(=O)[C@]5(C)CCCN5C2=O)C(=O)CCC(=O)N[C@@H](C)C(=O)N[C@H](CNC(=O)CCCCC[N+](C)(C)C)C(=O)N[C@@H](Cc2cccc(c2)CNC(=O)CO4)C(=O)N3)cc1 | refers to: contact dermatitis | human | dose not given |  | participants with adverse event | 0% |
| CC(C)(C)[C@H](NC(=O)[C@H](CCONC(=N)N)NC(=O)Cc1ccc(CNC(=N)N)cc1)C(=O)N[C@@H](CCONC(=N)N)C(=O)NCc1ccc(C(=N)N)cc1 |  | Sprague Dawley rat, male, plasma | intraperitoneal, 2.5 mg/kg, 8 h |  | concentration at time | 126 ng/mL |
| O=C(Nc1ccccc1)C1CCN(C(=O)Oc2cccnc2)CC1 | adverse event reporting | healthy women | oral, 60 mg |  | subjects with Hypoaesthesia adverse event | 0% |
| C=CC(=O)Nc1cc(Nc2nccc(Nc3cc(Cl)c(F)cc3C(C)(C)O)n2)c(OC)cc1N1CC[C@@H](N(C)C)C1 |  | human patients | oral, 100 mg, treatment-emergent adverse events |  | patients with amylase increased | 22.2% |
| CCN(CCO)CCCC(C)Nc1ccnc2cc(Cl)ccc12 (stereo not drawn) |  | newly diagnosed glioblastoma patients | oral, 800 mg/dose, grade 3, with: radiotherapy plus temozolomide |  | febrile neutropenia patients | 33% |
| CCCSc1ccc2nc(NC(=O)OC)[nH]c2c1 |  | mouse, blood | oral, 50 mg/kg |  | red cell distribution width (CV) | 14.6% |
| CCc1ccc(CC/C=C/c2ccc3c(c2)C(=O)CC3)cc1 |  | Sprague-Dawley rat, male | oral, 450 mg/kg/day, 14 days |  | ALP serum activity | 299 U/L |
| COc1cc2c(Oc3ccc4[nH]c(C)cc4c3F)ccnc2cc1OCC1(N)CC1 |  | paediatric recurrent refractory sarcoma | 10 mg |  | grade 1 or 2 intestinal obstruction | 0% |
| CN1CC[C@@H](c2c(O)cc(O)c3c(=O)cc(-c4ccc(C(F)(F)F)cc4Cl)oc23)[C@@H]1CO | refers to: Chills | B-cell malignancies | oral, 100 mg, intermittent dosing |  | patients with adverse event | 0% |
| O=C1Nc2cc3[nH]nc(-c4ccncc4)c3cc2CN1Cc1ccccc1 | CTCAE v4.03 | human, relapsed or refractory advanced solid tumours | intravenous, 3.6 mg/kg, pooled schedules |  | patients with subretinal fluid | 0% |
| CN(C(=O)n1cnc(-c2ccc[n+]([O-])c2)c1)C1CCCCC1 |  | Wistar rat, midbrain | oral, 10 mg/kg/day, 72 h, repeated 5 days |  | concentration | 13.8 ± 0.8 ng/g |
| CO[C@H]1C[C@@H]2CC[C@@H](C)[C@@](O)(O2)C(=O)C(=O)N2CCCC[C@H]2C(=O)O[C@H]([C@H](C)C[C@@H]2CC[C@@H](OC(=O)NCCOCCOCCOCCOCCOCCOCCOCCOCCC(=O)N3CCc4cc(Cn5nc(-c6ccc7oc(N)nc7c6)c6c(N)ncnc65)ccc4C3)[C@H](OC)C2)C[C@@H](O)[C@H](C)/C=C(\C)[C@@H](O)[C@@H](OC)C(=O)[C@H](C)C[C@H](C)/C=C/C=C/C=C/1C |  | patients with advanced solid tumours | intravenous, dose not given, grade ≥3 |  | incidence of Vomiting TRAE | 1.8% |
| O=S(=O)(Nc1ccccc1)c1ccc(NC(=S)Nc2ccccc2)cc1 |  | mouse, female, blood | oral, 20 mg/kg daily, 14 days |  | mean platelet volume | 6.28 fL |

Repeated from above:
| Compound | assay | test system | conditions | scale | quantity | value |
| --- | --- | --- | --- | --- | --- | --- |
| CN1CCN(S(=O)(=O)c2cc([N+](=O)[O-])ccc2N(CCOS(C)(=O)=O)CCOS(C)(=O)=O)CC1 |  | naive female NSG mice, plasma | intraperitoneal, 5 mg/kg |  | AUC(0-t) | 0.49 µM·h |
| COc1ncccc1-c1cnn2ccc(N3CCN(C(=O)OC(C)C)CC3)nc12 |  | mouse nerve ligation model, brain | oral, 30 mg/kg, 120 min after last dose, repeat dosing day 5 |  | drug concentration | 19 µM |
| CCCCCOc1ccc(-c2ccc(-c3ccc(C(=O)N[C@H]4C[C@@H](O)[C@@H](OCC[N+](C)(C)C)NC(=O)[C@@H]5[C@@H](O)[C@@H](C)CN5C(=O)[C@H]([C@@H](C)O)NC(=O)[C@H]([C@H](O)[C@@H](O)c5ccc(O)cc5)NC(=O)[C@@H]5C[C@@H](O)CN5C(=O)[C@H]([C@@H](C)O)NC4=O)cc3)cc2)cc1 |  | adult ICU patients, mITT, serum | dose not given, Baseline |  | alanine aminotransferase | 25.5 U/L |
| CC(C)C[C@H](NC(=O)[C@H](CCCCN)NC(=O)OCC1c2ccccc2-c2ccccc21)C(=O)N[C@H](C(=O)N[C@@H](Cc1ccccc1)C(=O)N[C@@H](Cc1ccccc1)C(=O)N[C@@H](CCCCN)C(=O)NCC(=O)N[C@@H](Cc1ccccc1)C(=O)N[C@@H](C)C(=O)N[C@@H](Cc1c[nH]c2ccccc12)C(=O)N[C@@H](CC(N)=O)C(=O)N[C@H](C(=O)N[C@H]1CSSC[C@@H](C(=O)N[C@@H](Cc2c[nH]cn2)C(=O)N[C@@H](CCCNC(=N)N)C(=O)N[C@@H](CCCNC(=N)N)C(=O)N[C@@H](C)C(=O)N[C@@H](CC(N)=O)C(N)=O)NC(=O)[C@H](C(C)C)NC(=O)[C@H](CCCNC(=N)N)NC(=O)[C@H](C(C)C)NC(=O)CNC(=O)[C@H](CC(N)=O)NC(=O)[C@H](CCCNC(=N)N)NC(=O)[C@H](Cc2ccc(O)cc2)NC(=O)[C@H](C(C)C)NC1=O)C(C)C)C(C)C |  | ICR mouse, blood | intramammary, 5 mg/kg, day 5, 3 d dosing |  | MCV | 40.9 ± 0.64 fL |
